Measurements gathered from unrelated publications.
Compare with care: the assays were run in different laboratories. Numbers after ± are the reported error.

Molecule	cell line	test	setting	how to read	EC50 [µM]
CC=CC(=O)N(CC)c1ccccc1C (mixture of isomers)	Kasumi 1	cell growth or viability, XTT	–	–	12.5
NCC(=O)O	rat dissociated neurons	chloride current, agonist, perforated patch clamp	pH 7.4, bicarbonate-free	–	104
COc1cc2ccc(=O)oc2cc1O	Kasumi 1	cell growth or viability, XTT	–	–	13
c1ccc2c(c1)ccn2CCCCN1CCN(C2CCCCC2)CC1	BxPC-3, AsPC-1, PANC-1, Panc02	cytotoxicity	48 h	–	> 100
CCCCC[C@H](O)/C=C/[C@H]1CCC(=O)[C@@H]1C/C=C\CCCC(=O)O	rat bone marrow cells	alkaline phosphatase activity, activator	9 days	–	0.0358 ± 0.0142
hexamidine	WM-115 melanoma, high S100B, scrambled shRNA	cell growth, SYBR Green proliferation	–	–	245 ± 15.5
CC1=C(/C=C/C(C)=C/C=C/C(C)=C/C(=O)O)C(C)(C)CCC1	786-0	cell growth or viability	48 h	–	23.6
CNC(=O)c1cc(O[C@H]2CC[C@H](NC(=O)Nc3ccc(Cl)c(C(F)(F)F)c3)CC2)ccn1	SK-BR-3	cell growth or viability, MTT	72 h	–	7
CCCNCC(O)COc1ccccc1C(=O)CCc1ccccc1 (stereo not drawn)	Kasumi 1	cell growth or viability, XTT	–	–	17.2
CCC#CC[C@H](C)[C@H](O)/C=C/[C@H]1CC(F)(F)C(=O)N1CCCCCCC(=O)O	rat bone marrow cells	alkaline phosphatase activity, activator	9 days, dried on plates 24 days	–	0.0084
human TGF-beta1	Mv1Lu	reporter gene, measured: SBE(CAGA)12 luciferase	concentration not given, 0.2% FBS	–	~1e-05
CCCCCCCCCCCCC/C=C/[C@@H](O)[C@@H](N)COP(=O)(O)O	human atrial myocytes	GIRK current, activator, whole-cell patch clamp	–	relative to: carbachol 20 µM response	0.0019
O=C1C(=Cc2ccc(Cl)cc2)CSc2ccccc21	SK-BR-3	cell growth or viability, MTT	48 h	–	10
COc1cc2ncnc(Nc3ccc(F)c(Cl)c3)c2cc1NC(=O)/C=C/CN1CCCCC1	Ba/F3 EGFR D770_N771insSVD	cell proliferation	–	–	0.68 ± 0.16
C=C1CC[C@H](O)C/C1=C/C=C1\CCC[C@]2(C)[C@@H](C(=O)CO)CC[C@@H]12	SK-MEL-188	cell growth or viability, MTT	–	–	0.0034

For quick reference, copied from above:
Molecule	cell line	test	setting	how to read	EC50 [µM]
COc1cc2ccc(=O)oc2cc1O	Kasumi 1	cell growth or viability, XTT	–	–	13
c1ccc2c(c1)ccn2CCCCN1CCN(C2CCCCC2)CC1	BxPC-3, AsPC-1, PANC-1, Panc02	cytotoxicity	48 h	–	> 100
